Results of several laboratories.
Compare with care: the assays were run in different laboratories. ± gives the spread as reported.

Substance | assay | test system | conditions | how to read | measurement | result
LPYGK | DSC | peptide, 7/3 SOPC/cholesterol bilayers | 10 mol%, pH 7.40, SOPC chain melting transition | – | transition enthalpy | 1.5 kcal/mol
COCCOCCOCCOc1cccc(C2=N[C@@](C)(C(=O)O)CS2)c1O | – | rat, bile duct-cannulated, bile and urine | subcutaneous, 300 µmol/kg single dose, 24 h, added: uranium 1 mg/kg s.c. | – | uranium excretion | 314 ± 105 µg/kg
C/C=C1\NC(=O)C(C(C)O)NC(=O)C(CCCN)NC(=O)C(CCO)NC(=O)CNC(=O)C(CCN)NC(=O)C(NC(=O)CC(O)CCCCCCCCCCC)COC(=O)C(C(O)CCl)NC(=O)C(C(O)C(=O)O)NC1=O (stereo not drawn) | calcein leakage | DOPC/DOPG/CHOL liposomes | concentration not given, added: 40 mM CaCl2 | – | maximum fusion | 30 ± 6%
KPNELSRVL | AIM | peptide, CD8+ T cells from PBMC, human donors | HLA-B*07:02 restricted, unit not given | relative to: positive over tested donors | frequency of responding donors | 33
CC[C@H](C)[C@H](NC(=O)[C@H](Cc1ccc(O)cc1)NC(=O)[C@H](Cc1c[nH]c2ccccc12)NC(=O)[C@H](CC(C)C)NC(C)=O)C(=O)N[C@@H](CCCCN)C(N)=O | DSC | SOPC/cholesterol 6/4 bilayers | 10 mol%, pH 7.40 | – | transition enthalpy | 0.3 kcal/mol
CS/C(S)=N/CCCC[S+](C)[O-] (racemic) | RT-PCR | rat, mammary gland | oral gavage, 200 mg/kg, four days | relative to: vehicle | mRNA level | 0.059 fold change
RPQGLPNNTA | AIM | peptide, CD8+ T cells from PBMC, human donors | HLA-B*07:02 restricted, unit not given | relative to: positive over tested donors | frequency of responding donors | 33
COCCOCCOCCOc1ccc(C2=N[C@@](C)(C(=O)O)CS2)c(O)c1 | – | rat, bile duct-cannulated, bile and urine | subcutaneous, 300 µmol/kg single dose, 24 h, added: uranium 1 mg/kg s.c. | – | uranium excretion | 515 ± 107 µg/kg
LPYAK | DSC | peptide, 7/3 SOPC/cholesterol bilayers | 15 mol%, pH 7.40, SOPC chain melting transition | – | transition enthalpy | 1.1 kcal/mol
insulin human | measured: CNR1 mRNA | uninfected mouse, brain | i.p., dose not given | relative to: PBS | fold change | 1.14
FVNEFYAYLR | AIM | peptide, CD8+ T cells from PBMC, human donors | dose not given | – | response magnitude per positive donor | 108
COc1nc(NC(C)C)nc(NC(C)C)n1 | agonist, qPCR in vivo, measured: Shp and Bsep mRNA | Oryzias latipes | dose not given | – | activity call | active
AGDSGFAAY | AIM | peptide, CD8+ T cells from PBMC, human donors | HLA-A*01:01 restricted, unit not given | relative to: positive over tested donors | frequency of responding donors | 25
COc1ccc(C2=N[C@@H](C(=O)O)CS2)c(O)c1 | – | rat, bile duct-cannulated, bile and urine | subcutaneous, 300 µmol/kg single dose, 24 h, added: uranium 1 mg/kg s.c. | – | uranium excretion | 327 ± 38 µg/kg
APSASAFFGM | AIM | peptide, CD8+ T cells from PBMC, human donors | HLA-B*07:02 restricted, unit not given | relative to: positive over tested donors | frequency of responding donors | 33
O=c1ccc(=O)[nH][nH]1 | agonist | medaka larvae | dose not given | – | toxicity | toxic
WTFGAGAAL | AIM | peptide, CD8+ T cells from PBMC, human donors | dose not given | – | response magnitude per positive donor | 111
COc1ccc(C2=N[C@@](C)(C(=O)O)CS2)c(O)c1 | – | bile duct-cannulated rats, bile and urine | subcutaneous, 300 µmol/kg, 24 h, added: uranium 1 mg/kg s.c. | – | uranium excretion | 339 ± 140 µg/kg

Excerpt of the above:
Substance | assay | test system | conditions | how to read | measurement | result
LPYGK | DSC | peptide, 7/3 SOPC/cholesterol bilayers | 10 mol%, pH 7.40, SOPC chain melting transition | – | transition enthalpy | 1.5 kcal/mol
KPNELSRVL | AIM | peptide, CD8+ T cells from PBMC, human donors | HLA-B*07:02 restricted, unit not given | relative to: positive over tested donors | frequency of responding donors | 33
